Measured values of several laboratories.
Protocols differ between the studies behind these lines. Several values in a cell are separate wells, animals, samples, runs or records. ± marks the error that the study gave.
HDAC1: Histone deacetylase 1 (HDAC1, Homo sapiens, UniProt Q13547)
Urease: Urease (Canavalia ensiformis, UniProt P07374)
TACR1: Substance-P receptor (TACR1, Homo sapiens, UniProt P25103)

C=Cc1cc(OC)c2c(c1)c(=O)oc1c2cc(OC)c2c(O)ccc([C@@H]3O[C@H](C)[C@H](O)[C@@](C)(O)[C@H]3O)c21 — IC50 (Bifunctional protein GlmU (Staphylococcus aureus, UniProt Q5HIH6, G277S); enzyme activity, inhibitor, absorbance): 26.1 µM
C=CCN1CCc2cccc3c2[C@H]1Cc1ccc(O)c(O)c1-3 — IC50 (Carbamate kinase (Giardia intestinalis, UniProt A8BB85); enzyme activity, ATP luminescence): 3.66 µM
CC(=O)N[C@@H](Cc1ccccc1)C(=O)N[C@@H](CC(C)C)C(=O)N[C@H](C(=O)N[C@@H](CC(=O)O)C(=O)CCl)[C@@H](C)O — IC50 (Caspase-1 (CASP1, Homo sapiens, UniProt P29466); enzyme activity, inhibitor, fluorescence): 3.36 µM and 3.38 µM
CC(C)C[C@H](N)C(=O)n1nc(Nc2ccccc2/C=C/C(N)=O)nc1N — IC50 (DNA topoisomerase 1 (TOP1, Homo sapiens, UniProt P11387); enzyme activity, inhibitor): 31.9 µM
CN(C)c1ccc(C(=O)NCc2ccc(CNC(=O)CS)cc2)cc1 — IC50 (HDAC1; enzyme activity, inhibitor): 14.7 µM
COc1c(OCCOCCOCCOCCOCCOCCOc2cccc(C(=O)C3CCN(CCc4ccc(F)cc4)CC3)c2OC)cccc1C(=O)C1CCN(CCc2ccc(F)cc2)CC1 — IC50 (5-hydroxytryptamine receptor 2A (HTR2A, Homo sapiens, UniProt P28223); phosphorylation in cells, antagonist): 0.164 µM
CC1(C)O[C@H]2OC(CNCCCCCCCCCCCCNCC3O[C@@H]4OC(C)(C)O[C@@H]4[C@H]3OCc3ccccc3)[C@H](OCc3ccccc3)[C@H]2O1 (stereo partly shown) — IC50 (DNA ligase 1 (Homo sapiens, UniProt P18858); enzyme activity, inhibitor, radiometric): 27 µM
COC(=O)C=CCCC(NC(=O)c1ccncc1C(=O)O)C(=O)NC(C(=O)N1CC(=O)CC1C(=O)NC(C(=O)NC(C(N)=O)C1CCCCC1)C1CCCCC1)C(C)(C)C (stereo not shown) — IC50 (Protein-glutamine gamma-glutamyltransferase E (Homo sapiens, UniProt Q08188); enzyme activity, inhibitor): 66.5 µM
CSCC[C@H](NC(=O)[C@H](Cc1c[nH]cn1)NC(=O)[C@H](Cc1c[nH]cn1)NC(=O)[C@H](CCCCN)NC(=O)[C@@H](N)C(C)C)C(=O)N[C@@H](Cc1ccc(O)cc1)C(=O)N[C@H](C(=O)N[C@@H](CO)C(=O)NCC(=O)N[C@@H](CCCCN)C(=O)O)C(C)C — IC50 (DNA dC->dU-editing enzyme APOBEC-3G (APOBEC3G, Homo sapiens, UniProt Q9HC16); deamination activity, inhibitor, PCR/StuI restriction; pH 7.4, 37 °C, with: ssDNA substrate 1 fmol/µL): > 100 µM
Cc1ccc(-c2nc3c(=O)n(C)c(=O)nc-3n(C)n2)cc1 — IC50 (Glutathione reductase, mitochondrial (GSR, Homo sapiens, UniProt P00390); enzyme activity, inhibitor): > 100 µM
Cn1cc(C(=O)Nc2ccccn2)c2ccccc21 — IC50 (Procathepsin L (CTSL, Homo sapiens, UniProt P07711); enzyme activity, inhibitor, FRET): > 100 µM
O=C1C(O)=C(Nc2ccc(Cl)cc2)C(=O)c2ccccc21 — IC50 (Dihydroorotate dehydrogenase (quinone), mitochondrial (DHODH, Homo sapiens, UniProt Q02127); enzyme activity, inhibitor, absorbance): 0.36 µM
O=C(O)c1ccccc1-c1c2ccc(=O)c([As]3SCCS3)c-2oc2c([As]3SCCS3)c(O)ccc12 — IC50 (Tyrosine-protein phosphatase non-receptor type 6 (PTPN6, Homo sapiens, UniProt P29350); enzyme activity, inhibitor, absorbance; pH 7, with preincubation): ~0.7 µM
CCCC[C@H](NC(=O)[C@H](C)NC(=O)[C@H](CCC(=O)O)NC(=O)[C@H](Cc1ccccc1)NC[C@H](CC(C)C)NC(=O)[C@H](C)NC(=O)[C@@H](N)CCCNC(=N)N)C(=O)O — IC50 (Gag-Pol polyprotein, protease (gag-pol, Human immunodeficiency virus 1, UniProt P12497); enzyme activity, inhibitor, FRET; NL4-3 wild type): 0.0782 ± 0.0117 µM
CC(=O)CCC1C(=O)NC(C(C)C)C(=O)NC(Cc2cc(O)cc(F)c2)C(=O)N2CCCC(N2)C(=O)OC(C(C)=CC=CC(=O)N2CCCCO2)CC=CC=CC(O)C(C)C1O (stereo not shown) — IC50 (ATP-binding cassette sub-family C member 2 (ABCC2, Homo sapiens, UniProt Q92887); efflux transport, inhibitor; membrane vesicles; with: estradiol 17β-glucuronide 1 µM): > 50 µM
CCC(CC)OC1C=C(C(=O)OC(C)OC(=O)C(N)C(C)CC)CC(NC(=N)N)C1NC(C)=O (mixture of isomers) — IC50 (Solute carrier family 15 member 1 (SLC15A1, Homo sapiens, UniProt P46059); transporter uptake, inhibitor, radiometric; pH 6): < 1000 µM
O=C1c2c(ccc(O)c2O)CN1Cc1ccc(F)c(Cl)c1 — IC50 (Gag-Pol polyprotein, integrase (gag-pol, Human immunodeficiency virus 1, UniProt P12497); strand transfer, inhibitor, gel-based; recombinant wild-type integrase): 1.1 ± 0.2 µM
N#Cc1cn([C@@H]2O[C@H](CSCC[C@H](N)C(=O)O)[C@@H](O)[C@H]2O)c2ncnc(N)c12 — IC50 (DNA (cytosine-5)-methyltransferase 1 (DNMT1, Homo sapiens, UniProt P26358); enzyme activity, inhibitor, radiometric): 2 µM
CP(=O)(O)CN — IC50 (Urease; inhibitor; pH 7): > 1000 µM
C/C=C1/CN2CCc3c([nH]c4ccccc34)[C@@H]2C[C@@H]1/C(=C\OC)C(=O)OC — IC50 (5-hydroxytryptamine receptor 5A (HTR5A, Homo sapiens, UniProt P47898); ligand displacement, radioligand; cell membranes): 6.84 µM
CC(NC(=O)CO)c1cc(Cl)ccc1Cl (stereo not shown) — IC50 (Urease; enzyme activity, inhibitor, absorbance): 12.5 µM
CC(C)C[C@H](NC(=O)[C@@H]1CCCN1C(=O)[C@H](CCCCN)NC(=O)[C@@H](N)CO)C(=O)N1CCC[C@H]1C(=O)N[C@@H](CCC(=O)O)C(=O)N[C@H](C(=O)N[C@H](C(=O)N[C@@H](CC(=O)O)C(=O)N[C@@H](CCC(=O)O)C(=O)N[C@@H](Cc1ccc(O)cc1)C(=O)N[C@@H](Cc1cn(CCOCCOCCOCCNC(=O)CCc2ccc(O)c(CN(CCN(CC(=O)O)Cc3cc(CCC(=O)NCCCC[C@H](NC(=O)N[C@@H](CCC(=O)O)C(=O)O)C(=O)O)ccc3O)CC(=O)O)c2)nn1)C(=O)O)[C@@H](C)O)C(C)C — IC50 (Glutamate carboxypeptidase 2 (FOLH1, Homo sapiens, UniProt Q04609); ligand displacement in cells, radioligand): 0.0303 µM
COC1CC(=O)N(C)C=CCCCC(=O)N(C)C(C(C)C)C(=O)N(C)C(CC(C)C)C(=O)OC(C(C)C)CC(C)C1 (stereo not shown) — IC50 (TACR1; β-arrestin recruitment, antagonist): > 100 µM
COCC1CCCCN1C(=O)n1cc(C(O)(c2ccccc2)c2ccccc2)nn1 (stereo not shown) — IC50 (sn-1-specific diacylglycerol lipase ABHD11 (Mus musculus, UniProt Q8K4F5); enzyme activity in cells, inhibitor): 0.00014 to 0.00017 µM
N=C(N)NCCC[C@H](N)C(=O)N1CCC[C@H]1C(=O)N1CCC[C@H]1C(=O)NCC(=O)N[C@@H](Cc1ccccc1)C(=O)N[C@@H](CO)C(=O)N1CCC[C@H]1C(=O)N[C@@H](Cc1ccccc1)C(=O)N[C@@H](CCCCN)C(=O)O — IC50 (B1 bradykinin receptor (BDKRB1, Homo sapiens, UniProt P46663)): 130 µM
N=C(N)NCCC[C@@H]1NC(=O)[C@H](CCCCNC(=O)CCOCCOCCOCCOCCNC(=O)CC[C@H](NC(=O)CCOCCOCCOCCOCCNC(=O)CC[C@H](NC(=O)CN2CCN(CC(=O)O)CCN(CC(=O)O)CCN(CC(=O)O)CC2)C(=O)NCCOCCOCCOCCOCCC(=O)N[C@@H](CCC(=O)NCCOCCOCCOCCOCCC(=O)NCCCC[C@@H]2NC(=O)[C@@H](Cc3ccccc3)NC(=O)[C@H](CC(=O)O)NC(=O)CNC(=O)[C@H](CCCNC(=N)N)NC2=O)C(=O)NCCOCCOCCOCCOCCC(=O)NCCCC[C@@H]2NC(=O)[C@@H](Cc3ccccc3)NC(=O)[C@H](CC(=O)O)NC(=O)CNC(=O)[C@H](CCCNC(=N)N)NC2=O)C(=O)NCCOCCOCCOCCOCCC(=O)NCCCC[C@@H]2NC(=O)[C@@H](Cc3ccccc3)NC(=O)[C@H](CC(=O)O)NC(=O)CNC(=O)[C@H](CCCNC(=N)N)NC2=O)NC(=O)[C@@H](Cc2ccccc2)NC(=O)[C@H](CC(=O)O)NC(=O)CNC1=O — IC50 (Integrin alpha-V/beta-3 (Homo sapiens, UniProt P05106+P06756); ligand displacement, radioligand): 0.0003 µM
CC(=O)N[C@@H](C)C(=O)N[C@@H](C)C(=O)N1CCC[C@H]1C(=O)N1CCC[C@H]1C(=O)N[C@@H](CCCCN)C(=O)N[C@@H](CCCCN)C(=O)N1CCC[C@H]1C(=O)N1CCC[C@H]1C(=O)N[C@@H](CCCNC(=N)N)C(=O)N1CCC[C@H]1C(=O)NCC(=O)N[C@@H](C)C(=O)N1CCC[C@H]1C(=O)NCC(N)=O — IC50 (Enhancer of filamentation 1 (NEDD9, Homo sapiens, UniProt Q14511); binding, inhibitor, fluorescence polarization competition; with: FITC-labeled peptide): ~1 µM
CC(C)[C@H](NC(=O)c1ccc(CNc2nc3c(c(=O)[nH]2)CCC3)cc1)C(=O)NC1CNC1 — IC50 (Interstitial collagenase (MMP1, Homo sapiens, UniProt P03956); enzyme activity, inhibitor): > 5 µM
O=C(O)CCn1c(=O)oc2cc(Cl)c(Cl)cc21 — IC50 (Kynurenine 3-monooxygenase (Pseudomonas fluorescens, UniProt Q84HF5); enzyme activity, inhibitor): 0.5 µM
Cc1ccc2nc(C(F)(F)F)c(C(=O)NCc3cccc(Cl)c3)n2c1 — IC50 (Cytochrome P450 2D6 (CYP2D6, Homo sapiens, UniProt P10635); inhibitor): 1.9 µM
O=C1c2ccccc2[Se](=O)N1c1ccccc1 (stereo not shown) — IC50 (Polyamine deacetylase HDAC10 (HDAC10, Homo sapiens, UniProt Q969S8); enzyme activity, inhibitor, fluorescence): > 10 µM
Nc1nc2c(c(=O)[nH]1)[n+](Cc1cccc(S(=O)(=O)F)c1)cn2[C@@H]1O[C@H](COP(=O)(O)O)[C@@H](O)[C@H]1O — IC50 (7-methylguanosine phosphate-specific 5'-nucleotidase (NT5C3B, Homo sapiens, UniProt Q969T7); m7GMP dephosphorylation, inhibitor, malachite green; 1 h preincubation, pH 7.5, 30 °C, with: m7GMP 100 µM): > 50 µM
O=C(CCCCCCC(=O)Nc1cccc(N=Nc2ccccc2)c1)NO — IC50 (HDAC1; enzyme activity, inhibitor; cis isomer, irradiated): 0.035 ± 0.023 µM
CCCC[C@H](NC(=O)[C@H](Cc1ccccc1)NC(=O)CNC(=O)[C@@H](C)NC(=O)[C@@H](N)Cc1ccc(O)cc1)C(=O)N1CCC[C@H]1C(=O)N[C@@H](CC(C)C)C(=O)N[C@@H](CO[C@@H]1O[C@H](CO)[C@@H](O)[C@H](O)[C@H]1O)C(=O)N[C@@H](Cc1c[nH]c2ccccc12)C(=O)NCc1cc(C(F)(F)F)cc(C(F)(F)F)c1 — IC50 (TACR1; ligand displacement, radioligand): 0.000117 µM
CC(C)[C@@H]1NC(=O)[C@H](CCC(N)=O)NC(=O)[C@@H]2CCCN2C(=O)[C@H](Cc2c[nH]cn2)NC(=O)CNC(=O)[C@@H](N)CSSC[C@@H](C(=O)NCC(N)=O)NC(=O)[C@@H]2CCCN2C1=O — IC50 (Streptavidin (Streptomyces avidinii, UniProt P22629)): 24 µM
CCCCCc1cc(O)c2c(c1)OC(C)(C)C1CCC(C(=O)OC3OC(C(=O)O)C(O)C(O)C3O)=CC21 (stereo not shown) — IC50 (Cytochrome P450 2B6 (CYP2B6, Homo sapiens, UniProt P20813); inhibitor; HEK cell microsomes; 30 min preincubation without NADPH): 5.1 ± 1.6 µM
C#CCC[C@](C)(O)[C@H]1CC[C@H]2[C@@H]3CC=C4C[C@@H](O)CC[C@]4(C)[C@H]3CC[C@@]21C — IC50 (Protein smoothened (Smo, Mus musculus, UniProt P56726); cell-free assay): 1.3 µM

Excerpt of the above:
COC(=O)C=CCCC(NC(=O)c1ccncc1C(=O)O)C(=O)NC(C(=O)N1CC(=O)CC1C(=O)NC(C(=O)NC(C(N)=O)C1CCCCC1)C1CCCCC1)C(C)(C)C (stereo not shown) — IC50 (Protein-glutamine gamma-glutamyltransferase E (Homo sapiens, UniProt Q08188); enzyme activity, inhibitor): 66.5 µM
CSCC[C@H](NC(=O)[C@H](Cc1c[nH]cn1)NC(=O)[C@H](Cc1c[nH]cn1)NC(=O)[C@H](CCCCN)NC(=O)[C@@H](N)C(C)C)C(=O)N[C@@H](Cc1ccc(O)cc1)C(=O)N[C@H](C(=O)N[C@@H](CO)C(=O)NCC(=O)N[C@@H](CCCCN)C(=O)O)C(C)C — IC50 (DNA dC->dU-editing enzyme APOBEC-3G (APOBEC3G, Homo sapiens, UniProt Q9HC16); deamination activity, inhibitor, PCR/StuI restriction; pH 7.4, 37 °C, with: ssDNA substrate 1 fmol/µL): > 100 µM
C/C=C1/CN2CCc3c([nH]c4ccccc34)[C@@H]2C[C@@H]1/C(=C\OC)C(=O)OC — IC50 (5-hydroxytryptamine receptor 5A (HTR5A, Homo sapiens, UniProt P47898); ligand displacement, radioligand; cell membranes): 6.84 µM
COC1CC(=O)N(C)C=CCCCC(=O)N(C)C(C(C)C)C(=O)N(C)C(CC(C)C)C(=O)OC(C(C)C)CC(C)C1 (stereo not shown) — IC50 (TACR1; β-arrestin recruitment, antagonist): > 100 µM
